Measured values pooled from the literature.
Parts stem from different laboratories: compare values within a part only.

Set 1
Target: RNA binding protein fox-1 homolog 2, RRM domain, GST-SBP tag (RBFOX2, Homo sapiens, UniProt O43251-10, residues 100-194)
Method: RNA Bind-n-Seq
Molecule type: RNA
Matrix: in vitro
Concentration: 365 nM
Setting: natural RNA segment, single round, ends assumed
Baseline: no-protein control
Reading: higher = stronger binding
Constant ends, left off below: GGGAGUUCUACAGUCCGACGAUC … UGGAAUUCUCGGGUGCCAA
Target sequence (chain): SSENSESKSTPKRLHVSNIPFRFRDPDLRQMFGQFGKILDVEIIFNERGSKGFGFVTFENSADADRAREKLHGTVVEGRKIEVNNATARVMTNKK
`AGCCUGUCCUCUCAGGAGCUACAAAAGGAAUGCAGAAUUCUGUCUCUGUCCCUCCCACCUUGCCUUAUCCUUCAUUGGUUUCUUCACACACUCAAUAAAGAAGCAUGCUU`: “RBNS enrichment (R)” 4.05.
Under “RBNS enrichment (R)”, `CCGCCACUCCCUACGCCCACCAUUAGGACCAUCUCUGGGUGGAACAUUUUGUGUGUGCAGACAAGGGUGAGGAGACUCGCCAGCCUGCUCUCUCAGGAGCACGUGUGAAC` is recorded as 0.192.
`GUUUGUAAUUCUUUGAUGUGCUACAAACCUGAAACUGGUAAGACAAGCACAAAGCAACGUGCAAUACAAAAAUCGUAUCUCAAGGGAAAAUACUCAAAGAAAGAAAAGUG`: “RBNS enrichment (R)” 0.428.
`UACUGAAGGAUUGUAGCAUUAAAGCAGAAUCCAAAUCAAAGUAAUUGUAUUUUUAAAAUACAGGAGGGCGGGCGCUAACCAGAUCUUGACUGAUAUGGAAACGUACUUUU` — result for “RBNS enrichment (R)”: 0.289.
For `AUUUUUCUAUUUUCCCCACAAAUUAUUUCAAAAAAAAUCUGUAUUUUCUGGGAUAUGUCAUUGGCAAGAGGAAGAACUGGUGUUUUGAAAGCAGUAUGGAUUCUUUAAAU`, “RBNS enrichment (R)” read 0.354.
For `AGGAGUACCCAUGCACAGCAGCUGUGGGGUGUGGGCAUCUUCAGGUGGUGUUCUGGUAAAAUUGUUAGAAUAGCUGUAUGAAGGAAACCAGUGGGAGGAAAUGAAGUUUU`, “RBNS enrichment (R)” read 0.963.
`GAAAUUCCUCUUUAAAUGAACAAGUAACCACAUCUCAGGCGGCAGUGAAGUCCAGAUAGUUUUGCAGAUUGUUUUGCUACUUUUUCAUAUGGUAUAUGUUUCUGAUUUUU`: “RBNS enrichment (R)” 0.58.
`GGUUUUCAAGGCUCCCAGACGUAGAGUAGGAAACGUGCUCUUCUAAAUGAGGAGGGAGAAGAUAAAGGAAACUUCUAGCCCCUGUCCUUAGUGCUUUGAGGAUUUUAUUU` — result for “RBNS enrichment (R)”: 0.249.
`UGGCUGGCCGGCUGGGUCUCCUCCCGGGCUCAGUGGGCCUGGGGCCUCUCUGACGUGGUGCCUGCUGGAGGGAGGCUCGUCGUCACCAGCUGACUGCUGGUCCGGCUUCU` — result for “RBNS enrichment (R)”: 0.471.
`UGGUGACUGAUUUCAAAUCAUGUUUUUUCUGCAAUGACUGUGGAGUUCCAUUCUUGGCAUCUACUCUGGACCAAGGAGCAUCCCUAAUUCUUCAUAGGGACCUUUAAAAA`: “RBNS enrichment (R)” 0.226.
For `GAUUUUGCCAAAAUUGUCAUGACUCUGAAUUCUUGCUGUGGGGACUUCCUGAGUUUUCUCAGUUUUUACAUCUAAGAUUAGUCUUGGCUGAAGAGAAAUGAGACGUGAUU`, “RBNS enrichment (R)” read 0.566.
`UAUCAGAGGCAAAGGAAGGUCUACAGGCAUCAAUGAGGGCAAAGGAGGGGGUCUCCAGACUCCACUGAAGCAGGAAGUCCACUGUUGUAAACUGAGUUUGCUAAAUUGGG`: “RBNS enrichment (R)” 0.332.

Set 2
Target: Interferon regulatory factor 5, full length, phosphomimetic (IRF5, Homo sapiens, UniProt Q13568-2, residues 1-514, S451D/S453D/S456D/S462D)
Method: protein-binding microarray
Molecule type: double-stranded DNA, one strand shown
Matrix: in vitro
Concentration: 940 nM top
Setting: 60-bp whole probe
With: salmon DNA 0.4 mg/ml
Baseline: random background probes
Reading: higher = stronger binding
Constant ends, left off below: GCCTAGCAC … GTCTTGATTCGCTTGACGCTGCTG
For `GACGGTTTCGGTTTCGGGGCGTGCTAG`, “fitted relative affinity” read 14.7 z-score.
For `TCTCCTTTCGGAATACCCTCGTGCTAG`, “fitted relative affinity” read 3.11 z-score.
For `GGGGAGCAGGGTGGCCCTGTGTGCTAG`, “fitted relative affinity” read -0.426 z-score.
`TCACCAATGCTTCTGGTACTGTGCTAG`: “fitted relative affinity” -0.454 z-score.
For `TTAGGTATGCTTATCCTTTAGTGCTAG`, “fitted relative affinity” read -0.235 z-score.
`AGATATCTGCACTCTCATGTGTGCTAG`: “fitted relative affinity” 0.217 z-score.
`AATTACATTTCATAGAGTGTGTGCTAG` — result for “fitted relative affinity”: 0.203 z-score.
Under “fitted relative affinity”, `TTAGATATAAGACTGGATTAGTGCTAG` is recorded as -0.366 z-score.
`GACGATTTCGGGTTTCGAGTCGTGCTA`: “fitted relative affinity” 4.19 z-score.
`TTAGAACTGAGCATCGATTAGTGCTAG` — result for “fitted relative affinity”: -0.337 z-score.
Under “fitted relative affinity”, `GACGGTATCGGTATCGGGAGGTGCTAG` is recorded as 8.24 z-score.
Under “fitted relative affinity”, `GACGATTTCAGTAGCGAGACGTGCTAG` is recorded as 0.357 z-score.
`GACGGTTTCGACACTTGGGACGTGCTA` — result for “fitted relative affinity”: 6.57 z-score.
For `GACGAACTGAGACTGGAAACGTGCTAG`, “fitted relative affinity” read -0.331 z-score.
Under “fitted relative affinity”, `TTAGATCTCAGTTACGATTAGTGCTAG` is recorded as 0.522 z-score.
`GACGAACTCGGGTATCGAGACGTGCTA`: “fitted relative affinity” 0.555 z-score.
Under “fitted relative affinity”, `GACGGTCTCGGACTGGGAACGTGCTAG` is recorded as 0.549 z-score.
`GACGGTTTCGGGTTTCCGGACGTGCTA` — result for “fitted relative affinity”: 9.44 z-score.
`TCATTTTACAATTTGCTACTGTGCTAG` — result for “fitted relative affinity”: 0.578 z-score.

Set 3
Target: Sal-like protein 4, full length isoform B (SALL4, Homo sapiens, UniProt Q9UJQ4-2, residues 1-616)
Method: universal PBM
Molecule type: double-stranded DNA, one strand shown
Matrix: in vitro
Concentration: not given
Setting: 8-mer, flanks averaged, mean of replicates
Reading: higher = stronger binding
`GACATTAA` gave an E-score of 0.25.
The E-score of `CCGCGGTC` is reported as -0.427.
`CACAGGAG` gave an E-score of -0.08.
`GGTAATGA` has an E-score of 0.144.
With `CCCAGCGG` the E-score was -0.298.
`AGTGTAAA` gave an E-score of 0.154.
`AGACGTGG` gave an E-score of -0.0282.
`GAGTAACC` gave an E-score of -0.119.
For `TGCGAGAA`, the E-score was -0.142.
The E-score of `AACGCTGA` is reported as -0.166.
`CGCAACAC` has an E-score of -0.0995.
For `CCGGCGCG`, the E-score was -0.273.
`AATAGCCG` has an E-score of -0.00907.
For `GGCATATA`, the E-score was 0.286.
For `AGCCGATC`, the E-score was 0.0166.
`GACGCTAA` gave an E-score of -0.0544.
With `CCCAGGTC` the E-score was -0.285.
With `TTTCGAAA` the E-score was 0.258.
`CTTGTGTA` has an E-score of 0.146.
The E-score of `CAAGCAAG` is reported as -0.21.
The E-score of `GAACCCGA` is reported as -0.286.
For `CAGGTAAA`, the E-score was 0.218.
With `AGCTGACC` the E-score was -0.187.
With `AACCATAC` the E-score was 0.118.
For `GCTAACTA`, the E-score was 0.0108.

Set 4
Target: Histone acetyltransferase KAT6A, both winged helices, GST fusion (KAT6A, Homo sapiens, UniProt Q92794, residues 1-181)
Method: protein binding microarray
Molecule type: double-stranded DNA, one strand shown
Matrix: in vitro
Concentration: not given
Setting: 8-mer, flanks averaged, mean of 2 arrays, mostly near background
Baseline: not given
Reading: higher = stronger binding
Construct (chain): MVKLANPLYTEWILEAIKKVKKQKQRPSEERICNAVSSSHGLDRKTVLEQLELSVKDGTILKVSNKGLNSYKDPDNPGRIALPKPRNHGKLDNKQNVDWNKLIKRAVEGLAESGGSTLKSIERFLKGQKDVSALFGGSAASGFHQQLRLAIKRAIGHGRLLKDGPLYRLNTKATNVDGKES
With `AGGAGCTG` the E-score was -0.24.
With `CGGTCTAG` the E-score was 0.0744.
`GGATAACA` has an E-score of -0.155.
The E-score of `CACCAACG` is reported as 0.143.
The E-score of `GGAGAACC` is reported as -0.035.
`ACCAACTG` has an E-score of -0.129.
With `CTCAAGAC` the E-score was -0.0291.
For `CAGATTGG`, the E-score was -0.263.
The E-score of `GCGTAGAC` is reported as 0.125.
The E-score of `CAGTGCTA` is reported as -0.0251.
With `AGACATCG` the E-score was -0.0794.
`CGGCATTC` has an E-score of 0.29.
`ATGGGTAG` has an E-score of -0.107.
`GTGAGCCA` gave an E-score of -0.161.
`ACGAGATA` has an E-score of -0.139.
With `GCTACCCA` the E-score was -0.127.
`CTCGGGGC` gave an E-score of 0.0124.
For `GAGCATCC`, the E-score was -0.114.
For `AAAAACAA`, the E-score was 0.0172.
With `CAACGGGA` the E-score was 0.172.
The E-score of `ATTTGGGC` is reported as -0.172.

Excerpt of the above (set 4):
With `CGGTCTAG` the E-score was 0.0744.
The E-score of `GCGTAGAC` is reported as 0.125.
With `AGGAGCTG` the E-score was -0.24.
The E-score of `CAGTGCTA` is reported as -0.0251.
With `AGACATCG` the E-score was -0.0794.
For `CAGATTGG`, the E-score was -0.263.
`GGATAACA` has an E-score of -0.155.
With `CTCAAGAC` the E-score was -0.0291.
